Published values of several laboratories.
A part holds a random share of what one study measured.

Set 1 — technique: universal PBM; form: double-stranded DNA, one strand shown; sample: in vitro; concentration: not given; reading: higher = stronger binding
Target: Sal-like protein 4, full length isoform B (SALL4, Homo sapiens, UniProt Q9UJQ4-2, residues 1-616)
Notes: 8-mer, flanks averaged, mean of replicates
Construct (chain): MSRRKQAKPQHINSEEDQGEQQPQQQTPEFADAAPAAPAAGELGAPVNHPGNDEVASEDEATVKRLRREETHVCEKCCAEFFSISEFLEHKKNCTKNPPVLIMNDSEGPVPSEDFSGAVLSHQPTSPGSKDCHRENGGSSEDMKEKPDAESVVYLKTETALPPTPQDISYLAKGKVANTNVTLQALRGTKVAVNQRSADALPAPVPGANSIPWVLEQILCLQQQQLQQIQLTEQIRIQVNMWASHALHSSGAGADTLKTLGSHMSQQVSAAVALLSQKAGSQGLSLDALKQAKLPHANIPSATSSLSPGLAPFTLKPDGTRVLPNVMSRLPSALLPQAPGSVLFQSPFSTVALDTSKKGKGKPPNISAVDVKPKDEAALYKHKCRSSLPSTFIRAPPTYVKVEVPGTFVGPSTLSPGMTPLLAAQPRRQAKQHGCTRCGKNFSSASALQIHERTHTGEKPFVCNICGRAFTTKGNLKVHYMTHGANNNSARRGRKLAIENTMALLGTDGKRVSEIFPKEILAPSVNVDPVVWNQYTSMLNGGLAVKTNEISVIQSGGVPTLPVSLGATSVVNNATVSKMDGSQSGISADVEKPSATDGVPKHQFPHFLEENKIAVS
Strand | E-score
GACAGTCA | -0.182
ACTTCGAT | 0.0476
GCGAAACA | -0.0711
CGAACCAC | -0.277
GAAGATAA | 0.256
TGAGAAAA | 0.159
ACGCTGGC | -0.232
CCTGCCCA | -0.192
GTGAGGCA | -0.168
CAGGTACG | -0.204
CCCTATAG | -0.0204
ATTTCCTA | 0.25
CGACCCAC | -0.209
CACGGTAA | -0.0301
CGAGACTC | -0.175
CAAGAGAA | 0.0233
GACACTCC | -0.128

Set 2 — technique: protein binding microarray; form: double-stranded DNA, one strand shown; sample: in vitro; concentration: not given; baseline: not given; reading: higher = stronger binding
Target: Histone acetyltransferase KAT6A, winged helix 1, GST fusion (KAT6A, Homo sapiens, UniProt Q92794, residues 1-85)
Notes: 8-mer, flanks averaged, mean of 2 arrays, mostly near background
Residues (chain): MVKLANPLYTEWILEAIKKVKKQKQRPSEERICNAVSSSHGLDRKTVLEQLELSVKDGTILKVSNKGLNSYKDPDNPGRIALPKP
Strand | E-score
CTCACCAC | -0.172
CCTTACCG | 0.095
CCCTATTA | -0.15
CCTGCGAC | -0.0213
GATTTTAC | -0.137
ACCCACAA | -0.127
AAGGCACT | -0.226
ACAAGATG | -0.244
CTGGGTCC | -0.163
GAGCGAAC | -0.0284
TACTAGGA | -0.196
ATGGCTAA | -0.17
CAGATATC | -0.135
CCTGTAAA | -0.19
GTAAAGAC | -0.0989
ATATAACG | -0.0742
AATTACAC | 0.0204
GCTAGTCA | -0.0704

Set 3 — technique: protein-binding microarray; form: double-stranded DNA, one strand shown; sample: in vitro; concentration: 940 nM top; notes: 60-bp whole probe; together with: salmon DNA 0.4 mg/ml; baseline: random background probes; reading: higher = stronger binding; shared flanks, not repeated: GCCTAGCAC … GTCTTGATTCGCTTGACGCTGCTG
Target: Interferon regulatory factor 5, full length, phosphomimetic (IRF5, Homo sapiens, UniProt Q13568-2, residues 1-514, S451D/S453D/S456D/S462D)
Strand | fitted relative affinity [z-score]
GACCGTTTCCTTCTCCTGACGTGCTAG | 1.39
GACGGTATCGGGGTTCGGGACGTGCTA | 3.15
CCCCATCTTGTTCCCAGAGAGTGCTAG | 0.868
TTTATTTTCTGAATGCCCTCGTGCTAG | 1.17
TCATTAATGAAAATTCTAACTGTGCTA | 0.248
CACGGTCTCGGTATCGGGACGTGCTAG | 4.65
TTAGGACTGGACTACCGGTTAGTGCTA | -0.558
TTAGGACTGCTTATCCTTCAGTGCTAG | -0.411
TTAGGACTGGTTCTCGGTTAGTGCTAG | 1.71
AGGGCGGCTGAGTCAGCACAGTGCTAG | -0.817
AGAGTTCCAGACAGCTCCCTGTGCTAG | -0.207
TCACCTGTCTACATGGGACTGTGCTAG | 0.0825
CTATGAAGTCATGTCTTCAGGTGCTAG | -0.758
TCATTTATCCCTGACAGACTGTGCTAG | 0.859
CTAGGTATCGGTTTCGGTTAGTGCTAG | 11.8
TTAGGTCTTGGTTTCGGTTAGTGCTAG | 9.52
GACCGTTTCCTACTGCTGACGTGCTAG | 0.382
TTAGGAGTGGGGTTTCGGTTAGTGCTA | 5.88
GCTTCTACACAGAGCATGGGGTGCTAG | -0.241
TTAGATATCGGGTTTCCATTAGTGCTA | 0.794
TTAGGTTGCGGTCTCGGTTAGTGCTAG | 2.88
TCAAGGTTGTTTCTAATACTGTGCTAG | 0.33
TTAGAACTCAGTCTCGATTAGTGCTAG | 2.79
GACGAACTGGCGTTTCGAGACGTGCTA | 0.128
TTAGGTTTAGGTCTCGGTTAGTGCTAG | 2.83

Set 4 — technique: RNA Bind-n-Seq; form: RNA; sample: in vitro; concentration: 200 nM; notes: whole 134-nt RNA, ends assumed; together with: 150 mM KCl; baseline: input library; reading: higher = stronger binding
Target: Ras GTPase-activating protein-binding protein 1, full length (G3BP1, Homo sapiens, UniProt Q13283)
Chain of UniProt Q13283 (whole entry, looked up): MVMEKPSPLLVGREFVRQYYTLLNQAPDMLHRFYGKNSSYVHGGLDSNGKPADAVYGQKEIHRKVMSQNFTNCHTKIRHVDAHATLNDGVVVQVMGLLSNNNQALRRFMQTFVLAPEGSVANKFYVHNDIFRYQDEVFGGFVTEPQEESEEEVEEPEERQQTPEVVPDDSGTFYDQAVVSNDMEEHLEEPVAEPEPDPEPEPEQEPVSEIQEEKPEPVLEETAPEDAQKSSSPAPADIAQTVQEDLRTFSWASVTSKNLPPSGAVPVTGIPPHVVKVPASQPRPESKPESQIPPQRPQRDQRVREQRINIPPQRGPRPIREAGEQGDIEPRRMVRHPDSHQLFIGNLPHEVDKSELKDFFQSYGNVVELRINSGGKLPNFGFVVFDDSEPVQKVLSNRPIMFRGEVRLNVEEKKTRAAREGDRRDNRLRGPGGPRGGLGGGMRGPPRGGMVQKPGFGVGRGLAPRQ
Strand | log2 enrichment
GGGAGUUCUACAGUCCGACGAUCUAACUUUAGAGGAGGAUCUGAUGGAUAUGGCAGUGAACGUGGAUUUGGGGAUGGCUAUAAUGGGUAUGGAGGAGGACCUGGAGGUGGCAAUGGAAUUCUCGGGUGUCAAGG | 0.324
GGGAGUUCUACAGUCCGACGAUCCACAGACAACACGCACCCACCCAGACACAGAGGGAAGGGGUUGGGAUGGGGACAGGGUGCACAGCAGGGCGGGGUAGGACCCCAGCCCCUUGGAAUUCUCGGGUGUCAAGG | 1.94
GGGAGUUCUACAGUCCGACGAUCUGGCCCUGGUGGCAUGCGGGGAGGAAGAGGUGGCCUCAUGGAUCGUGGUGGUCCCGGUGGAAUGUUCAGAGCUGGCCGUGGUGGAGACAGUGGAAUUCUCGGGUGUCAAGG | 0.112
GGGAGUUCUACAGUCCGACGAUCAAGUCCUGUGCUACACAUCGUAUGUACCGAAUCGGGGCCCCGGGGCCCCGGCCCCGGAAAGUAUUAUGUUACGCCGUUCGGAUCUGCACUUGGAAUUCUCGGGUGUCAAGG | 0.347
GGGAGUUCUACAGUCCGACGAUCUGGAGCACAGGGCGAGCUCUCCUCCGCCCUGCAGCCUCAGGUAAGGAUCCGGACCUUCACUGCUGCCCCAACUGGGGCUCCUCAGCUCGGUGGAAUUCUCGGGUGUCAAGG | -0.566
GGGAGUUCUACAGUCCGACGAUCCUGUGCUACACAUCGUAUGUACCGAAUCGGGGAAAAAGGGGAAAAAAAGGGGUUUUUGGGGAAAGUAUUAUGUUACGCCGUUCGGAUCUGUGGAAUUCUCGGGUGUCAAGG | 0.0369
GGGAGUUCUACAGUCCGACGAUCGCAGGAAGUAAAAACAAAUGGAAGUGCUUCGGAUAGUGGCAGGGGUGGGGGUUGCUAAGGAAAGGGUGGGAUGGGAGUGGGUAAAGAGUUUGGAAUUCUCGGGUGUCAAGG | 1.43
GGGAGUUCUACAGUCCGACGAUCAGUCCUGUGCUACACAUCGUAUGUACCGAAUCGGGCCCCCGGCCCCCGGGCCCCCGGAAAGUAUUAUGUUACGCCGUUCGGAUCUGCACUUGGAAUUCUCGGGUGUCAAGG | -0.633
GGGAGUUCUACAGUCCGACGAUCUGGCCCUGGUGGCAUGCGGGGAGGAAGAGGUGGCCUCAUGGAUCGUGGUGGUCCCGGUGGAAUGUUCAGAGGUGGCCGUUGUGGAGACAGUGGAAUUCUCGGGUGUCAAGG | 0.0699
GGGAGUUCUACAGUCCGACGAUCUCUCAGCAGGCGCAUCUACACUAGUGACCUGAGGAGAGAAACCCUAACCCCACAAUGGCUGCAUCUUCUCUGAAGACGAGACUGAUGCUCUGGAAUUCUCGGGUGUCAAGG | -0.496

Excerpt of the above (set 1):
Strand | E-score
GACACTCC | -0.128
CACGGTAA | -0.0301
GACAGTCA | -0.182
CAGGTACG | -0.204
ACGCTGGC | -0.232
CGAACCAC | -0.277
TGAGAAAA | 0.159
ATTTCCTA | 0.25
ACTTCGAT | 0.0476
